Assay results from different studies.
Compare with care: the assays were run in different laboratories. “And” joins repeats or separate records; there may be more than shown. Numbers after ± are the reported error.
Organism: SARS-CoV-2

SMILES | test | system | setting | EC50
N#Cc1ccccc1CC(N)C(=O)NC(Cc1ccc(Cl)cc1Cl)C(=O)NC(CC(=O)NCCc1ccccc1)Cc1ccc(F)cc1 (stereo not shown) | viral replication | USA-WA1/2020 | 24 h | 0.3 µM
CCOC(=O)Cn1[se]c2ccccc2c1=O | viral replication, RT-qPCR | Vero | 48 h | 24 µM
Cc1cc(O)ccc1CN(C)[C@H](C)c1cccc2ccccc12 | viral replication | Vero E6, USA-WA1/2020 | 24 h | > 60 µM
CN(C)c1ccc(N(Cc2cc(Cl)cs2)C(=O)Cc2cncc3ccccc23)cc1 | dsRNA staining | Caco-2, Omicron XBB.1.5 |  | 0.2 µM
CCn1ccc(-c2cc(-c3cnn(C)c3)cc([C@@H](C)NC(=O)c3cc(OCCN(C)C)ccc3C)c2)n1 | viral replication, plaque | Vero-AT |  | 0.51 µM
Cc1ccc(CNC(=O)c2cccc(Br)c2F)cc1C(=O)N[C@H](C)c1cccc2ccccc12 | viral replication | Vero C1008, WK-521 ancestral Wuhan |  | 70.7 ± 8 µM
O=C(Oc1ccc(CCCCCCCCC(=O)c2c(OC(=O)c3ccccc3)cccc2OC(=O)c2ccccc2)cc1OC(=O)c1ccccc1)c1ccccc1 | MTT | Vero E6/TMPRSS2, WK-521 ancestral |  | 14 µM
CN(C)CCCCNC(=O)C[C@H](Cc1ccc(F)cc1)NC(=O)[C@@H](Cc1ccc(Cl)cc1Cl)NC(=O)[C@H](N)Cc1ccccc1C#N | viral replication | USA-WA1/2020 | 24 h | 1.3 µM
O=C(CNc1cccc(F)c1)N1CCCC2=CC3CC(CN4CCCCC34)C21 (stereo not shown) | pseudovirus entry |  | pseudovirus | 144 µM
C#CCCC1(CCCNC(=O)CCOCCOc2ccc(-c3cnc4c(C#Cc5cccnc5)snc4c3)cc2)N=N1 | viral replication | Calu-3, USA-WA1/2020 |  | 0.23 µM
COC(=O)c1cc2c(=O)n3ccccc3nc2n1Cc1ccccc1 | viral replication, qPCR | Vero E6 |  | 22.1 ± 1.01 µM
Clc1ccc(CN2CCCC3=CC4CC(CN5CCCCC45)C32)cc1Cl (stereo not shown) | pseudovirus entry | Huh-7 |  | 28.2 µM
Cc1ccc(N2CC(N3CCC(C)(O)CC3)C2)cc1C(=O)NC1(c2ccc3c4c(cccc24)CC3)CC1 | viral replication | Vero C1008, wild type |  | 0.233 µM
CN(CC(=O)N1CCCC2=CC3CC(CN4CCCCC34)C21)c1ccc(Cl)cc1 (stereo not shown) | pseudovirus entry |  | pseudovirus | 21.1 µM
C[C@](C(=O)NC1CCOCC1)(c1cncnc1)N(C(=O)[C@H](F)Cl)c1ccc(OC(F)(F)Cl)cc1 |  | Vero C1008, XBB.1 |  | 0.05 µM and 0.03 µM
CC(C)C[C@H](NC(=O)c1cc2c(F)ccc(F)c2[nH]1)C(=S)N[C@@H](C[C@@H]1CCNC1=O)C(=O)c1nc2cc(F)ccc2s1 | viral replication, RT-qPCR | VeroE6, WK-521 |  | 0.49 ± 0.06 µM
CC(C)(C)[C@H](NC(=O)C(F)F)C(=O)N1C[C@H]2[C@@H]([C@H]1C(=O)N[C@H](C#N)C[C@@H]1CCCNC1=O)C2(C)C | viral replication | Canada/VIDO 01/2020 | with: efflux inhibitor CP-100356 | 0.1 µM
Cc1ccc(CNC(=O)c2cccc(Cl)c2)cc1C(=O)N[C@H](C)c1cccc2ccccc12 | viral replication | Vero C1008, WK-521 ancestral Wuhan |  | > 100 µM
CC(C)C(=O)OC[C@H]1O[C@@](C#N)(n2ccc(N)nc2=O)[C@H](O)[C@@H]1O | viral replication, qRT-PCR of viral RNA | Caco-2, Washington |  | 2.1 ± 0.4 µM
CC1(C)CCC(CN2CCN(c3ccc(C(=O)NS(=O)(=O)c4ccc(NCC5CCOCC5)c([N+](=O)[O-])c4)c(Oc4cnc5[nH]ccc5c4)c3)CC2)=C(c2ccc(Cl)cc2)C1 | viral replication, plaque | Vero C1008 | 16 h | 1.18 ± 0.12 µM
O=C(c1cncc(Br)c1)N1CCN(C(c2ccccc2)c2ccccc2)CC1 | viral replication | USA-WA1/2020 |  | 0.81 ± 0.18 µM
Cc1ccc(OCCN(C)C)cc1C(=O)N[C@H](C)c1cc(-c2cnn(C)c2)cc(-c2cncs2)c1 | viral replication | Caco-2, icSARS-CoV-2-nLuc reporter |  | 0.58 µM
Cc1ccc(NC(=O)CN2CCCC3=CC4CC(CN5CCCCC45)C32)c(Cl)c1 (stereo not shown) | pseudovirus entry |  | pseudovirus | 77.4 µM
CCc1n[nH]c(NC(=O)c2ccc3c(c2)nnn3C)n1 | viral replication |  |  | > 100 µM
Clc1ccc(CN2CCCC3=CC4CC(CN5CCCCC45)C32)c(Cl)c1 (stereo not shown) | viral replication |  |  | > 3750 µM
O=C(NC1CCN(c2ncnc3[nH]cnc23)CC1)c1cccc(NS(=O)(=O)c2ccc(C(F)(F)F)cc2)c1 | viral replication | A549-ACE2, Wuhan-Hu-1 | 24 h | 0.31 µM

SMILES | test | system | setting | EC50
CN(C)CCCCNC(=O)C[C@H](Cc1ccc(F)cc1)NC(=O)[C@@H](Cc1ccc(Cl)cc1Cl)NC(=O)C(N)Cc1ccccc1C(N)=O (stereo partly shown) | viral replication | USA-WA1/2020 | 24 h | > 10 µM
CCOC(=O)CNC(=O)c1ccccc1[Se][Se]c1ccccc1C(=O)NCC(=O)OCC | viral replication, RT-qPCR | Vero | 48 h | 21.3 µM
CC(=O)N(CCCc1cn(-c2ccc(CN3CCOCC3)cc2)nn1)CCNc1ccnc2cc(Cl)ccc12 | viral replication | Vero 76, MUC-IMB-1/2020 | 30 h | 2.4 ± 3.7 µM
NS(=O)(=O)c1cccc2c1C(=O)c1cccc(O)c1C2=O | virus-induced cytopathic effect | Vero E6, USA-WA1/2020 | 72 h | > 20 µM
CC(=O)OC1(C)CC(C=C(C)CCC=C(C)C)OC2(C=C(CO)C3CC(=O)C(C)=CC3O2)C1 (stereo not shown) | viral replication, item: dsRNA | Calu-3, Delta B.1.617.2 |  | 3.9 µM
Cc1ccc(CNC(=O)c2ccc(I)cc2)cc1C(=O)N[C@H](C)c1cccc2ccccc12 | viral replication | Vero C1008, WK-521 ancestral Wuhan |  | 32 ± 3.1 µM
CN(C)CCCCNC(=O)C[C@H](Cc1ccc(F)cc1)NC(=O)[C@@H](Cc1ccc(Cl)cc1)NC(=O)[C@H](N)Cc1ccccc1C#N | viral replication | USA-WA1/2020 | 24 h | > 10 µM
Cn1cc(C(=O)Nc2ccccn2)c2ccccc21 | viral replication |  |  | > 100 µM
Cc1ccc(OCCN(C)C)cc1C(=O)N[C@H](C)c1cc(-c2cnn(CF)c2)cc(-c2ccn(C)n2)c1 | viral replication | Caco-2, icSARS-CoV-2-nLuc reporter |  | 0.86 µM
C[C@@H]1O[C@@H](n2c3ccccc3c3c4c(c5c6ccccc6[nH]c5c32)CNC4=O)C[C@@H](N)[C@H]1O | viral replication, item: nucleocapsid protein | Calu-3, Omicron BA.2 |  | 0.044 µM
CN(C)CCCNC(=O)C[C@H](Cc1ccc(F)cc1)NC(=O)[C@@H](Cc1ccc(Cl)cc1Cl)NC(=O)[C@H](N)Cc1ccccc1C#N | viral replication | USA-WA1/2020 | 24 h | 4.2 µM
CO/C1=C\C(C)=C\[C@@H](C)[C@@H](O)[C@@H](C)C/C(C)=C/C=C/[C@H](OC)[C@@H]([C@@H](C)[C@@H](O)[C@H](C)C(=O)/C=C/[C@H](C)[C@H](O)C(C)C)OC1=O | viral replication, item: nucleocapsid protein | Calu-3, Omicron BA.1 |  | 0.0134 µM
CC[C@H](C)[C@H](NC(=O)[C@H](CCCCN)NC(=O)[C@@H](NC(=O)[C@H](CCC(N)=O)NC(=O)[C@H](CCCNC(=N)N)NC(=O)COCCOCCNC(C)=O)[C@@H](C)CC)C(=O)N[C@@H](Cc1c[nH]c2ccccc12)C(=O)N[C@@H](Cc1ccccc1)C(=O)N[C@@H](CCC(N)=O)C(=O)N[C@@H](CC(N)=O)C(=O)N[C@@H](CCCNC(=N)N)C(=O)N[C@@H](CCCNC(=N)N)C(=O)N[C@@H](CCSC)C(=O)N[C@@H](CCCCN)C(=O)N[C@@H](Cc1c[nH]c2ccccc12)C(=O)N[C@@H](CCCCN)C(=O)N[C@@H](CCCCN)C(N)=O | viral replication |  |  | > 50 µM
CCC(C)Nc1[nH]c2c(C(F)(F)F)cc(Cl)cc2c(=O)c1C(=O)C(C)C (stereo not shown) | viral replication, high content screening | Vero |  | 14.2 µM
CCc1cccc2c(C(=O)NC3CCN(C(=O)C(C)C)CC3)c[nH]c12 | viral replication |  |  | > 100 µM
O=C(CN1CCCC2=CC3CC(CN4CCCCC34)C21)Nc1ccc(Cl)cc1 (stereo not shown) | pseudovirus entry |  | pseudovirus | 103 µM
Cc1ccc(CNC(=O)c2ccc(Cl)cc2)cc1C(=O)N[C@H](C)c1cccc2ccccc12 | viral replication | Vero C1008, WK-521 ancestral Wuhan |  | 15 ± 0.6 µM
CC[C@H](C)[C@@H]1NC(=O)[C@H](C(C)C)NC(=O)[C@H](CC(C)C)NC(=O)[C@H](CCCCN)NC(=O)[C@H](CCCNC(=N)N)NC(=O)[C@@H]2CCCN2C(=O)[C@H](C(C)C)NC(=O)[C@H](CCCNC(=N)N)NC(=O)[C@H](Cc2ccc(O)cc2)NC(=O)CSC[C@@H](C(=O)NCC(N)=O)NC(=O)[C@H](Cc2ccccc2)NC(=O)[C@H](CC(N)=O)NC(=O)[C@H](Cc2c[nH]c3ccccc23)NC(=O)[C@H](C(C)C)NC(=O)[C@H](CO)NC(=O)CNC(=O)[C@H]([C@@H](C)CC)NC1=O |  | HEK293 ACE2 TMPRSS2, ancestral Wuhan |  | 11.4 µM
Cc1ccc(CNC(=O)c2cccc(Br)c2)cc1C(=O)N[C@H](C)c1cccc2ccccc12 | viral replication | Vero C1008, WK-521 ancestral Wuhan |  | > 100 µM
CC(C)(C)[C@H](NC(=O)C(F)(F)F)C(=O)N1C[C@H]2[C@@H]([C@H]1C(=O)N[C@H](C#N)C[C@@H]1CCNC1=O)C2(C)C | viral replication, dsRNA staining | Calu-3, Omicron BQ.1.1 |  | 0.5 µM
Cc1ccc(N2CC(N3CCC(C)(O)CC3)C2)cc1C(=O)NC1(c2ccc3c4c(cccc24)C(=O)N3C)CC1 | viral replication | Vero C1008, wild type |  | 0.035 µM
NCCNc1ccnc2cc(Cl)ccc12 | viral replication | Caco-2 | 30 h | 18.9 ± 10 µM
CNC(=O)C[C@H](Cc1ccc(F)cc1)NC(=O)[C@@H](Cc1ccc(Cl)cc1Cl)NC(=O)[C@@H](Cc1ccccc1C#N)NC(=O)OC(C)(C)C | viral replication | USA-WA1/2020 | 24 h | > 10 µM
COc1cc(O)c2c(c1)/C=C/C[C@H](O)[C@H](O)C(=O)/C=C\C[C@H](C)OC2=O | viral replication | Vero E6, USA-WA1/2020 |  | 2.3 µM
C[C@H](c1cccc2ccccc12)N(C)Cc1cccc2[nH]ccc12 | viral replication | Vero E6, USA-WA1/2020 | 24 h | 7.88 µM
CN(C)CCNC(=O)C[C@H](Cc1ccc(F)cc1)NC(=O)[C@@H](Cc1ccc(Cl)cc1Cl)NC(=O)[C@H](N)Cc1ccccc1C#N | viral replication | USA-WA1/2020 | 24 h | 1.2 µM

For quick reference, copied from above:
SMILES | test | system | setting | EC50
Cc1ccc(CNC(=O)c2cccc(Br)c2)cc1C(=O)N[C@H](C)c1cccc2ccccc12 | viral replication | Vero C1008, WK-521 ancestral Wuhan |  | > 100 µM
CC1(C)CCC(CN2CCN(c3ccc(C(=O)NS(=O)(=O)c4ccc(NCC5CCOCC5)c([N+](=O)[O-])c4)c(Oc4cnc5[nH]ccc5c4)c3)CC2)=C(c2ccc(Cl)cc2)C1 | viral replication, plaque | Vero C1008 | 16 h | 1.18 ± 0.12 µM
CC(C)(C)[C@H](NC(=O)C(F)F)C(=O)N1C[C@H]2[C@@H]([C@H]1C(=O)N[C@H](C#N)C[C@@H]1CCCNC1=O)C2(C)C | viral replication | Canada/VIDO 01/2020 | with: efflux inhibitor CP-100356 | 0.1 µM
CC(C)(C)[C@H](NC(=O)C(F)(F)F)C(=O)N1C[C@H]2[C@@H]([C@H]1C(=O)N[C@H](C#N)C[C@@H]1CCNC1=O)C2(C)C | viral replication, dsRNA staining | Calu-3, Omicron BQ.1.1 |  | 0.5 µM
Clc1ccc(CN2CCCC3=CC4CC(CN5CCCCC45)C32)cc1Cl (stereo not shown) | pseudovirus entry | Huh-7 |  | 28.2 µM
